Assay results of several laboratories.
Protocols differ between the studies behind these lines. Several values in a cell are separate wells, animals, samples, runs or records. ± gives the spread as reported.
MAPK8: Mitogen-activated protein kinase 8 (MAPK8, Homo sapiens, UniProt P45983)

SMILES | target | assay | test system | setting | how to read | measurement | value
O=C(N1CCCC1)n1cc(-c2ccc(-c3ccccc3)cc2)nn1 | Isoamyl acetate-hydrolyzing esterase 1 homolog (Iah1, Mus musculus, UniProt Q9DB29) | probe labelling, inhibitor, competitive ABPP-SILAC, refers to: Iah1 | mouse T cells | concentration not given, 4 h, in situ, single peptide | relative to: treated over DMSO, lower = more inhibition | SILAC ratio | 1.27 and 0.98 and 1.24 and 1.29
COC(=O)[C@@]1(C)C=C(C(=O)OC(C)(C)C)C(=O)CC1 | MAPK8 | D-peptide binding, inhibitor, FP peptide displacement | – | 1000 µM | lower is stronger displacement | fraction bound | 0.108
Cc1cn(CC(=O)N(CC(=O)N[C@H]2COC[C@@H]2N(CC(=O)NCCOCCOCC(N)=O)C(=O)Cn2cnc3c(N)ncnc32)[C@H]2COC[C@@H]2NC(=O)CN(C(=O)Cn2cnc3c(N)ncnc32)[C@H]2COC[C@@H]2NC(=O)CN(C(=O)Cn2cnc3c(=O)[nH]c(N)nc32)[C@H]2COC[C@@H]2NC(=O)CN(C(=O)Cn2cc(C)c(=O)[nH]c2=O)[C@H]2COC[C@@H]2NC(=O)CN(C(=O)Cn2cnc3c(=O)[nH]c(N)nc32)[C@H]2COC[C@@H]2NC(=O)CN(C(=O)Cn2cc(C)c(=O)[nH]c2=O)[C@H]2COC[C@@H]2NC(=O)CN(C(=O)Cn2cnc3c(N)ncnc32)[C@H]2COC[C@@H]2NC(=O)CN(C(=O)Cn2cnc3c(=O)[nH]c(N)nc32)[C@H]2COC[C@@H]2N)c(=O)[nH]c1=O | complementary RNA | duplex formation, UV melting curve fit | PBS | 1 µM | – | ΔH | -69.8 ± 0.4 kcal/mol
O=C(O)C1OC(OC2C(C(=O)O)OC(OC3C(C(=O)O)OC(OC4C(C(=O)O)OC(OC5C(C(=O)O)OC(OC6C(C(=O)O)OC(O)C(O)C6O)C(O)C5O)C(O)C4O)C(O)C3O)C(O)C2O)C(O)C(O)C1O (centres unmarked) | Beta-lactoglobulin (LGB, Bos taurus, UniProt P02754, A134V/G80D) | isothermal titration calorimetry | – | pH 4.00, 37 °C, 50 mM KH2PO4 | – | -TΔS | 1.2 kcal/mol
Cc1cc(NC(=O)[C@H](O)c2cc(F)cc(F)c2)ccc1-c1cnc(N)c(C(=O)NC(C)C)c1 | PIK3C2B (Homo sapiens, UniProt O00750) | binding, competition with immobilised ligand | – | 1 µM | – | remaining binding | 73%
NCc1cc2c(cc1F)C(=O)N(C1CCC(=O)NC1=O)C2 (centres unmarked) | GSPT1/CRBN (Homo sapiens, UniProt P15170+Q96SW2) | degrader, Western blot | Hep3B | 24 h | – | Dmax | 99%
CCOC(=O)[C@](CC)(CCCSCCOCCOCCNC(=O)OC(C)(C)C)NC(=O)c1ccc(C2CC2)c(Cc2ccc(F)cc2)n1 | Cnr2 (Mus musculus, UniProt P47936) | cAMP, agonist | – | – | – | Emax | 77%
C[C@@H](Nc1nc(N[C@H](C)C(F)(F)F)nc(-c2cccc(Cl)n2)n1)C(F)(F)F | IDH1 (Homo sapiens, UniProt O75874, R132H) | enzyme activity, diaphorase-resazurin coupled | – | 1 h preincubation, R132H homodimer | – | maximal inhibition | 92.6 ± 5.3%
CCC1(CC)C(=O)N(c2cc(O)cc(C(=O)N3CCN(Cc4ccc(Br)cc4)CC3)c2)C1=O | Dipeptidyl peptidase 8 (Homo sapiens, UniProt Q6V1X1) | inhibitor | – | with: GP-AMC substrate | relative to: Ki' DPP9 over Ki' DPP8 | selectivity ratio | 11
CN1CCCN(c2cnc3c(cc(C(=O)NCc4ccc(Cl)cc4)c(=O)n3CC(=O)N3CC(C)(F)C3)n2)C1=O | DNA polymerase catalytic subunit (Human cytomegalovirus, UniProt P08546) | enzyme activity, inhibitor | – | – | – | Hill slope | 0.66
Fc1ccc(Nc2nc(NC3CCCCC3)c3cc(C(F)(F)F)ccc3n2)cc1F | ADRB2 (Homo sapiens, UniProt P07550, L155C) | β-arrestin2 recruitment, antagonist, BRET | – | mutant L155C | relative to: isoprenaline maximal response | maximal inhibition | -8.8%
CCCCCCCC/C=C\CCCCCCCC(=O)NCCO | Trpv1 (Mus musculus, UniProt Q704Y3, S511T) | ion current, agonist, whole-cell patch clamp | – | S511T | relative to: 3 mM 2-APB | maximal open probability | 0.77 ± 0.17
CC(C)(C)OC(=O)C1=C[C@@](C)(C(=O)OCC#Cc2ccncc2)CCC1=O | MAPK8 | D-peptide binding, inhibitor, FP peptide displacement | – | 0.7812 µM | lower is stronger displacement | fraction bound | 0.894
Cc1cc(=O)oc2cc(NC(=O)CCCCCCCC(=O)NO)ccc12 | HDAC8 (Homo sapiens, UniProt Q9BY41) | ITC | Hepes buffer | pH 7.5 | – | TΔS | 5.8 kcal/mol
CC[C@H](C)[C@@H]1NC(=O)[C@H](Cc2c[nH]c3ccccc23)NC(=O)[C@H](C)NC(=O)[C@H](Cc2ccc(O)cc2)NC(=O)CNC(=O)[C@H](Cc2ccccc2)N(C)C(=O)[C@H](C)N(C)C(=O)[C@H](Cc2ccc(O)cc2)NC(=O)[C@H](C(C)C)NC(=O)[C@H](CC(C)C)NC(=O)[C@H](Cc2ccccc2)NC(=O)CSC[C@@H](C(=O)NCC(N)=O)NC1=O | STING1 (Homo sapiens, UniProt Q86WV6, H232R) | thermal stability, DSF | – | 200 µM | – | ΔTm | 0.29 °C
COC(=O)[C@]1(Cc2ccccc2)C=C(C(=O)OC(C)(C)C)C(=O)CC1 | MAPK8 | D-peptide binding, inhibitor, FP peptide displacement | – | 7.812 µM | lower is stronger displacement | fraction bound | 0.571
CCCCCC(O)/C=C/C=O (centres unmarked) | Ribonucleoside-diphosphate reductase large subunit (Homo sapiens, UniProt P23921) | competitive isoTOP-ABPP, refers to: RRM1 cysteine peptide | Ramos soluble proteome | 100 µM, with: iodoacetamide probe | relative to: DMSO over compound-treated, higher = stronger cysteine blockade | isoTOP-ABPP competition ratio | 1.4
C[Si](C)(C)C[C@H](CN)CC(=O)O | Interleukin-6 receptor subunit alpha (IL6R, Homo sapiens, UniProt P08887) | binding, radioligand binding | – | 250 µM | – | inhibition | 0%
CCCCCCCCCCCCC/C=C/C=O | Elongation factor 2 (EEF2, Homo sapiens, UniProt P13639) | competitive isoTOP-ABPP | proteome, soluble, MDA-MB-231 | 100 µM, with: iodoacetamide probe | relative to: DMSO over compound-treated, higher = stronger cysteine blockade | isoTOP-ABPP competition ratio | 1.3
COC(=O)[C@@]1(C)C=C(C(=O)NCc2cccc(C(=O)Nc3ccc(Nc4nccc(-c5cccnc5)n4)c(C)c3)c2)C(=O)CC1 | MAPK8 | SPR two-step binding model | – | reversible bond formation | – | ΔΔG bond formation contribution | -1.83 kcal/mol
C[C@@H]1C[C@H](Nc2ccccc2)c2cc(F)ccc2N1C(=O)c1ccc(Cl)c(Cl)c1 | Ecdysone receptor (Aedes albopictus, UniProt Q9U3Y4) | ligand binding, inhibitor | intact cells | with: [3H]ponasterone A | direction not given | pIC50 Z-score | -0.09
Cc1cccc2c1N(C(=O)n1ccnn1)CC2 | KAI2 (Arabidopsis thaliana, UniProt Q9SZU7, F26A) | ITC | – | F26A mutant | relative to: wild type | relative affinity | 14.3%
C#CCOC(=O)[C@@]1(C)C=C(C(=O)OC(C)(C)C)C(=O)CC1 | MAPK8 | D-peptide binding, inhibitor, FP peptide displacement | – | 6.25 µM | lower is stronger displacement | fraction bound | 0.913
CNC(=O)C[C@H](Cc1ccc(C#N)cc1)NC(=O)c1cc(-c2ccc(CN[C@H](C)c3ccc(C)cc3)o2)ccc1Cl | PDK4 (Homo sapiens, UniProt Q16654) | enzyme activity, inhibitor | – | 1 µM | – | activity vs control | 99%
CC(=O)N1c2ccc(-c3ccc(CNC(=O)c4cn5cc(-c6cnc(N)nc6)nc(N6CCOCC6)c5n4)cc3)cc2CC[C@@H]1C | Bromodomain testis-specific protein, BD1 (BRDT, Homo sapiens, UniProt Q58F21) | binding, competition with immobilised ligand | – | 10 µM | – | remaining binding | 0%
CC1(C)C[C@@H](Nc2cccc(-c3sc(C(=O)O)c(OCC(=O)O)c3Cl)c2)CCN1S(=O)(=O)Cc1cccc(NC(=O)CN2CCC(c3ccc4c(c3)oc(=O)n4C3CCC(=O)NC3=O)CC2)c1 (some centres unmarked) | PTPN2 (Homo sapiens, UniProt P17706, E41K/R35E/R43E) | degrader, bio-layer interferometry | – | 250 nM | higher = more binding | BLI binding response | 1.02 a.u.
